Results gathered from unrelated publications.
Every numbered part comes from another study and shows a few of its results, in no order.

Study 1 — technique: protein-binding microarray; molecule type: double-stranded DNA, one strand shown; medium: in vitro; concentration: 250 nM; setting: 60-bp whole probe; together with: salmon DNA 0.4 mg/ml; relative to: random background probes; reading: higher = stronger binding; constant ends, left off below: GCCTAGCAC … GTCTTGATTCGCTTGACGCTGCTG
Target: Interferon regulatory factor 7, full length, phosphomimetic (IRF7, Homo sapiens, UniProt Q92985, residues 1-503, S101K/S471D/S472D/S475D/S476D/S477D/S483D/S484D/S487D)
Residues (chain): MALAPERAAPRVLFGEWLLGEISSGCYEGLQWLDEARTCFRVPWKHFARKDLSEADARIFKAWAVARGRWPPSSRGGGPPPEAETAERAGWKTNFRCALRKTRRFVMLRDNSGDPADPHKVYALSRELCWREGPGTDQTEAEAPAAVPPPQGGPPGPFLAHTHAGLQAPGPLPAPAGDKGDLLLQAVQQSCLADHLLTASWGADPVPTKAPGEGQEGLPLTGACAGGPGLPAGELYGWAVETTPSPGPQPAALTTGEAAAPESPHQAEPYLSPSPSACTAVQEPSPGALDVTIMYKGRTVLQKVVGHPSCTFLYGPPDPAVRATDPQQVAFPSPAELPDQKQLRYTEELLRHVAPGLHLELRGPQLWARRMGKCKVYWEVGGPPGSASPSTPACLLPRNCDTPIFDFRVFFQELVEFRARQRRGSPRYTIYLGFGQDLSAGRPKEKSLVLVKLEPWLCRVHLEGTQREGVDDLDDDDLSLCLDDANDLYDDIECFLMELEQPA
Sequence	log fluorescence
TTAGATTCCAGTTTCGATGAGTGCTAG	4.67 z-score
TCAAATTAGTGTTTCCCACTGTGCTAG	0.852 z-score
GCCGGTTTCGGGACTGGGGACGTGCTA	4.46 z-score
TCAGGTTGAACATGAACACTGTGCTAG	-0.239 z-score
TTGTGTCAACTTTCTCTGCTCGTGCTA	0.053 z-score
GTAGGTATCGACTTTCGGTTAGTGCTA	2.66 z-score
ATATATATATTATATATTTATGTGCTA	0.567 z-score
CTAGGTTTCGGTTCCGGTTAGTGCTAG	12.6 z-score
TCAGTCCTCCTGACTGGGACTGTGCTA	-0.195 z-score
TTAGGAATCGGGTTTCGGTTAGTGCTA	7.33 z-score
GACGGTATCGGTATAGGGACGTGCTAG	0.96 z-score
GACGGTATAGGGTTTCGGGACGTGCTA	0.925 z-score
TCATCTTCCCCTCTCATACTGTGCTAG	1.29 z-score
GAATTTCCCACTTTCAGTTCGTGCTAG	5 z-score
CAGCTTTTATCCCTGACAGAGTGCTAG	0.0536 z-score
TTAGATTTCGGGTATCGATTTGTGCTA	3.59 z-score
GACGAACTGCGGACTGGAGACGTGCTA	-0.786 z-score

Study 2 — technique: RNA Bind-n-Seq; molecule type: RNA; medium: in vitro; concentration: 365 nM; relative to: no-protein control; reading: higher = stronger binding
Target: RNA binding protein fox-1 homolog 2, RRM domain, GST-SBP tag (RBFOX2, Homo sapiens, UniProt O43251-10, residues 100-194)
Setting: natural RNA segment, single round, ends assumed
Constant ends, left off below: GGGAGUUCUACAGUCCGACGAUC … UGGAAUUCUCGGGUGCCAA
Residues (chain): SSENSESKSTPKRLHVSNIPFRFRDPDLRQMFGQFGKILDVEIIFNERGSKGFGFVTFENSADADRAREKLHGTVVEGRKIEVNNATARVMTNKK
Sequence	RBNS enrichment (R)
UGGCCAGAGGCAUUUUUUAAAUCAGGCCCAAUAUCAGUAUUCUUUUUGUGUGUGCCAAUUUUGUUAUCACAUCCCUAUGAAGUUGAAAAAUAAAGUUAAUUUUGACCAAA	0.467
AAGAAGUGUUUCAAACGAUCUGAAUGUAUAAAACAAGUCAAUGCCCUACAUGGUGUGAUGCUGCAUUAUAUAUACAACCGUGUGCAUAUAUUAAAUUCUGUUUGUCGAGU	0.273
AAGAGGAGCUGGUGGCUGCCAGCCCUGGGGCCCGGCACAGGCCUGGGCCUUCCCCUUCCCUCAAGCCAGGGCUCCUCCUCCUGUCGUGGGCUCAUUGUGACCACUGGCCU	0.318
UACUGUAAAGUGGAAUUUCAGGAAGGCUUGUGUGAACCGUUGCGCAUAAAUAAACCCUUUCUACCGGGCUGUGCAACGCUGGUCCUUUCUUGGGCGCUGGUGUGGGGGAU	0.327
UAUCGUUUUGCUUUGCUGACAUGUUUAUAAAGAAAGACCAUCAUACUUAAUAGUCUUUGGAGGUUUGUAAGGUGUUUUUUUGUUUUGUUUUAAUGUAUUUUAUUGAUUAU	1.21
ACCUCCCAGGCAUCUGAACAGGAUGACAUCAUCUUAUUAUAUCUUACUUUACACAUACGUGUAUGUACACACACACACACAAUACAAGACAUUUUUCCUGUUUUAGAAAA	0.639
UAUUUUUGUACUACAUGGGGACUCUUCCUGCAUGUCAGCAAUAAAACUUCCUGAUCUGGAGCCACCAUGGUCUGUAGCCUGCCUCUGUGCUUGUCCGUGCGCUCUCUAGC	2.05
CAUUGAUAUUUCUCUGAUGUGAGAUAGAGCUGUGUGUGUGUGACUGGCUAGCAGCUAUCAGUAUUAGCGAGGUGUCUUGCCGAUAUCAGAGUCAGUGUGUCAUUUCAGUU	0.602
ACCCUCGUGCUAGGCGAUUCGUGUUACUAUACAAAACCGCAGAAGGAAUUGGGCCACCUGUGGCAUCAAGACUGCAACUUGACAAUCACGGUUUGCUGAUCUCAAACGGG	0.257
ACAGAUAUGCUGACUAACAGAGAUUGCCAUUAUGAUUUAUAACAAUAUCAAAUGUAUAGUUAUGAACUAGUUAUGAAAUAAUCUUAUGGUUGAGGGUCACCACAACAUGA	0.326
CUCUCCCUCCUGCUUUCUUUUUGGAGCUUCUUUGGGUCAAAGACAUGGAAGUUGCUUCAGAUAUCUGAUACUGUGAAUGUUUGAACAUAUCCGUGGCCUUCACCUCUCCA	0.553
GGGCGUGUGUGACACUGAUGAGUUUCACUGUACUGCAUGUGACUUCUCCCCUGCCCUUCCUCCUGAUGGAGUGUGCAGACAGCCAUGCGUGGCCACGGGGGCAGUGUGAG	24.1

Study 3 — technique: protein binding microarray; molecule type: double-stranded DNA, one strand shown; medium: in vitro; concentration: not given; relative to: not given; reading: higher = stronger binding
Target: Histone acetyltransferase KAT6A, winged helix 1, GST fusion (KAT6A, Homo sapiens, UniProt Q92794, residues 1-85)
Setting: 8-mer, flanks averaged, mean of 2 arrays, mostly near background
Residues (chain): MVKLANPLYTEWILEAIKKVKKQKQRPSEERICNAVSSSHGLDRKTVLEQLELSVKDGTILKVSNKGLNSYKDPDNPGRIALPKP
Sequence	E-score
ACTATCAC	-0.22
ACGCAATG	0.0513
GGCGATAA	0.136
TTACATAA	-0.119
GCTCCCGA	0.106
GGCCTATA	0.0132
CGGATGTA	0.145
GCGATTTA	0.135
ATGCGAAT	0.0748
GAAGTGGA	-0.0422
AAGATCGT	-0.0527
CCGGTAAC	0.24
ACGCCCTG	0.118
AACTCGGT	-0.112
TAGGGGCA	-0.231
ACTCATGC	-0.0843
AAATGGCC	0.117
ATCCTTTA	-0.21
GTTCTCTA	0.0388
ACTCTATC	-0.105
AATCTGGT	-0.237
CGTGTGGA	-0.0378
AAGGAGTA	-0.0487
AATCAAAG	-0.0928
ATACGCCC	0.25

Study 4 — technique: RNA Bind-n-Seq; molecule type: RNA; medium: in vitro; concentration: 1 µM; setting: whole 134-nt RNA, ends assumed; together with: 150 mM KCl; relative to: input library; reading: higher = stronger binding
Target: Ras GTPase-activating protein-binding protein 1, C-terminal RGG region (G3BP1, Homo sapiens, UniProt Q13283)
UniProt Q13283, sequence (whole entry, looked up): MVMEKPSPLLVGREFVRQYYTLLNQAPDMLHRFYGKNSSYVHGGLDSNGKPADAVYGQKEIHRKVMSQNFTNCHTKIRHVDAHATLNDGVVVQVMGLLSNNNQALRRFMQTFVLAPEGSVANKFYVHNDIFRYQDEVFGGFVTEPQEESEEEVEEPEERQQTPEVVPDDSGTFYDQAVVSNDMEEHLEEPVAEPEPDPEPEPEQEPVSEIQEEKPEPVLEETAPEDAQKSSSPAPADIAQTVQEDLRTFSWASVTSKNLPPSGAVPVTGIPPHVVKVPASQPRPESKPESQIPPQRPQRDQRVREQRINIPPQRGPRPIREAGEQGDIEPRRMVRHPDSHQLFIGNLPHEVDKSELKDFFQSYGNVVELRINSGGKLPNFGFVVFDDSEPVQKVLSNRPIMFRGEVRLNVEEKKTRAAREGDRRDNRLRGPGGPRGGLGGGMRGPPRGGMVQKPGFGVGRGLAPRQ
Constant ends, left off below: GGGAGUUCUACAGUCCGACGAUC … UGGAAUUCUCGGGUGUCAAGG
Sequence	log2 enrichment
UGGCCCUGGUGGCAUGCGGGGAGGAAGAGGUGGCCUCAUGAAUCGUGGUGGUCCCGGUGGAAUGUUCAGAGGUGGCCGUGGUGGAGACAG	1.73
ACCAUGCAGGUGGGCAUCUGUGGGAAGUGGGGCAAGGGGGGGAUAGGGAGGGGGGUAACACUUUGGGAACAGGUGGUCCCAGGUCGUUUC	-1.23
UUCCGGAAGAAGAAGCUCCGAUUUGGCCGGAGCCGGAUCCACGAGUGGGGUCUGUUUGCCAUGGAACCCAUUGCUGCUGACGAGAUGGUC	-1.47
UGUGCUACACAUCGUAUGUACCGAAUCGGGCCCCCCCGGGGCCCCCCCGGGCCCCCCCGGGGAAAGUAUUAUGUUACGCCGUUCGGAUCU	-2.62
CACAGACAACACGCACCCACACAGACACAGAGGGAAGGGGUUGGGAUCGGGACAGGGUGCACAGCAGGGCGGGGUAGGACCCCAGCCCCU	-0.594
UGGGAGGUGGAUUUUGUUUAUUUUUUUAGCUCAUUUCCAGGGGUGGGAAUUUUUUUUUAAUAUGUGUCAUGAAUAAAGUUGUUAUUGAAA	3.49
AAGUCCUGUGCUACACAUCGUAUGUACCGAAUCGGAAAAGGGAAAAGGGGAAAAGGGAAAGUAUUAUGUUACGCCGUUCGGAUCUGCACU	-1.11
GCAGGAAGUAAAAACAAAUGGAAAUGCUUCGGAUACUGGCAGGGGUGGGGGUUGCUAAGGAAAGGGUGGGAUGGGAGUGGGUAAAGAGUU	2.09
UGUAGAAAAGGCACUGGACUAACACUUGGCUGUAUCUUGUAACAGGCAUGUUAUGUUACCCAGAGAACUUUCCAAACAAGUACCUAAAAC	-0.527
UCAAGUCCUGUGCUACACAUCGUAUGUACCGAAUCGGCCCCGGCCCCGGCCCCGGAAAGUAUUAUGUUACGCCGUUCGGAUCUGCACUUC	-2.08
ACCAUGCAGGUGGGCAUCUUUGGGAAGUGGGGCAAGGGGGGGAUAGGGAGGGGGGUAACACUUUGGGAAUAGGUGGUCCCAGGUCGUUUC	1.93
CACAGACAACACGCACCCACACAGACACAGAGGGAAGGGGUUGGGAUGGGGACGGGGUGCACAGCAGGGCGGGGUAGGACCCCAGCCCCU	-0.0343
CUCAAGUCCUGUGCUACACAUCGUAUGUACCGAAUCGGCCGGCCGGGGCCGGGAAAGUAUUAUGUUACGCCGUUCGGAUCUGCACUUCCA	-1.11
UCCUGUGCUACACAUCGUAUGUACCGAAUCGGGAAAGGGUUUUUUUGGGAAAAAAAGGGAAAGUAUUAUGUUACGCCGUUCGGAUCUGCA	-0.841

Study 5 — technique: aptamer microarray, sandwich; molecule type: DNA with 2'F-ANA; medium: in vitro; concentration: 200 nM; together with: Cy3 exosite-II aptamer, 400 nM; reading: higher = stronger binding; sequence: GGTTGGTGTGGTTGG
Target: Prothrombin, mature alpha-thrombin (F2, Homo sapiens, UniProt P00734)
Setting: whole 15-mer aptamer, many near background
Modification	mean fluorescence intensity [a.u.]
2'F-ANA at 2 3 4 5 7 8 12 13 14 15	54.2
2'F-ANA at 4 9 11 12 14 15	90.4
2'F-ANA at 4 5 7 11 13 15	49.9
2'F-ANA at 2 4 5 6 8 10 12 15	49.4
2'F-ANA at 1 4 5 7 8 13 14	55.9
2'F-ANA at 1 3 4 6 9 11 12 15	258
2'F-ANA at 3 4 5 6 7 9 11 12 14	51.1
2'F-ANA at 1 2 3 5 6 8 9 10 11 15	52
2'F-ANA at 5 7 9 12	198
2'F-ANA at 2 3 4 7 14	360
2'F-ANA at 1 2 6 7 8 10 11 12 15	65.9
2'F-ANA at 1 3 4 5 7 9 10 12 14	51.5
2'F-ANA at 2 8 11 12	765
2'F-ANA at 11 12 13 14 15	198
2'F-ANA at 2 3 5 6 8 9 11 12 13 15	127
2'F-ANA at 1 2 4 7 10 12 14	49.3
2'F-ANA at 1 2 3 6 7 8 13 14	78.2
2'F-ANA at 2 3 4 8 14	395

A few entries again (study 4):
Sequence	log2 enrichment
UGUAGAAAAGGCACUGGACUAACACUUGGCUGUAUCUUGUAACAGGCAUGUUAUGUUACCCAGAGAACUUUCCAAACAAGUACCUAAAAC	-0.527
ACCAUGCAGGUGGGCAUCUGUGGGAAGUGGGGCAAGGGGGGGAUAGGGAGGGGGGUAACACUUUGGGAACAGGUGGUCCCAGGUCGUUUC	-1.23
CACAGACAACACGCACCCACACAGACACAGAGGGAAGGGGUUGGGAUGGGGACGGGGUGCACAGCAGGGCGGGGUAGGACCCCAGCCCCU	-0.0343
UUCCGGAAGAAGAAGCUCCGAUUUGGCCGGAGCCGGAUCCACGAGUGGGGUCUGUUUGCCAUGGAACCCAUUGCUGCUGACGAGAUGGUC	-1.47
UGUGCUACACAUCGUAUGUACCGAAUCGGGCCCCCCCGGGGCCCCCCCGGGCCCCCCCGGGGAAAGUAUUAUGUUACGCCGUUCGGAUCU	-2.62
UCAAGUCCUGUGCUACACAUCGUAUGUACCGAAUCGGCCCCGGCCCCGGCCCCGGAAAGUAUUAUGUUACGCCGUUCGGAUCUGCACUUC	-2.08
UCCUGUGCUACACAUCGUAUGUACCGAAUCGGGAAAGGGUUUUUUUGGGAAAAAAAGGGAAAGUAUUAUGUUACGCCGUUCGGAUCUGCA	-0.841
CACAGACAACACGCACCCACACAGACACAGAGGGAAGGGGUUGGGAUCGGGACAGGGUGCACAGCAGGGCGGGGUAGGACCCCAGCCCCU	-0.594
AAGUCCUGUGCUACACAUCGUAUGUACCGAAUCGGAAAAGGGAAAAGGGGAAAAGGGAAAGUAUUAUGUUACGCCGUUCGGAUCUGCACU	-1.11
ACCAUGCAGGUGGGCAUCUUUGGGAAGUGGGGCAAGGGGGGGAUAGGGAGGGGGGUAACACUUUGGGAAUAGGUGGUCCCAGGUCGUUUC	1.93
UGGCCCUGGUGGCAUGCGGGGAGGAAGAGGUGGCCUCAUGAAUCGUGGUGGUCCCGGUGGAAUGUUCAGAGGUGGCCGUGGUGGAGACAG	1.73
CUCAAGUCCUGUGCUACACAUCGUAUGUACCGAAUCGGCCGGCCGGGGCCGGGAAAGUAUUAUGUUACGCCGUUCGGAUCUGCACUUCCA	-1.11
